Experimental data pooled from the literature.
Protocols differ between the studies behind these lines. Values joined by “and” are separate records of one study, mostly repeats; a detail may differ. ± marks the error that the study gave.
Chain of UniProt P05177 (whole entry, looked up): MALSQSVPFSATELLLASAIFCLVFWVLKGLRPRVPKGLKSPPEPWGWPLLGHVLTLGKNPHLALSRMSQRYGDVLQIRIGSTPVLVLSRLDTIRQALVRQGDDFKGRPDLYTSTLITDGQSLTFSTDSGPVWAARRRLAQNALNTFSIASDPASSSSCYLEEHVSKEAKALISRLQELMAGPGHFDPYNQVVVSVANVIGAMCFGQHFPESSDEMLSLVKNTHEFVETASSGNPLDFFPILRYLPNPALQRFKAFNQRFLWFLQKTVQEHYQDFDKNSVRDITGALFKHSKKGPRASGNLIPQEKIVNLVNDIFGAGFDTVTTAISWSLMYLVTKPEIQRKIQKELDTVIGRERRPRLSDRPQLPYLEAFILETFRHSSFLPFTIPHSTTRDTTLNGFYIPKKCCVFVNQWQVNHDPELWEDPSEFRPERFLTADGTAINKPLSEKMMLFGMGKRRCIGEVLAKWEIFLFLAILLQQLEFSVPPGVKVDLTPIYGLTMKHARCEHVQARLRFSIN

Compound | tested on | test | system | setting | how to read | measurement | value
N#Cc1ccc(Nc2nc(N)cc(Oc3c(F)cc(-c4cccc(C#N)c4)cc3F)n2)cc1 | MT4 uninfected |  |  |  |  | CC50 | 7.58 ± 1.03 µM
COC1CN([C@H]2CC[C@H]([C@@]3(C)Oc4c(Cl)cc(C(=O)NCc5c(SC)cc(C)[nH]c5=O)c(C)c4O3)CC2)C1 |  | RNA-seq, item: CACHD1 mouse homolog | mouse, HT-1376 xenograft, whole blood | dose not given | reference: vehicle | log2 fold change | 3.43
O=c1c2sccc2n(CC2COc3ccccc3O2)c(=O)n1O (stereo not drawn) | MDCK |  | Caco-2 | 10 µM |  | Papp B→A | 12.2 ×10⁻⁶ cm/s
C=C(NC(=O)c1csc(-c2nc3c(cc2O)-c2nc(cs2)C(=O)NC(C(C)O)C(=O)NC(=C(C)OC)c2nc(cs2)C(=O)NC2c4nc(cs4)C(=O)NC(COC(=O)c4c5c6c(cccc6n4O)COC(=O)C(OC4CC(C)(O)C(N(C)C)C(C)O4)C2OC5)c2nc-3cs2)n1)C(N)=O (stereo not drawn) | human hepatocytes | item: CYP1A2 |  | concentration not given, 3 days | reference: negative control | mRNA level | < 4 fold
CNS(=O)(=O)Nc1nccc(Cc2c(C)c3ccc(Oc4ncccc4F)cc3oc2=O)c1F | HCC827 | cell viability |  | 7 days |  | IC50 | > 1 µM
COc1ccc(Cn2c(=O)n(O)c(=O)c3ccccc32)cc1 | MDCK |  | Caco-2 | 10 µM |  | Papp A→B | 26.5 ×10⁻⁶ cm/s
N=C(N)NCCC[C@@H]1NC(=O)[C@H](CCCNC(=N)N)NC(=O)[C@@H](CCCNC(=N)N)NC(=O)[C@@H](CCCNC(=N)N)NC(=O)[C@@H](C(c2ccccc2)c2ccccc2)NC(=O)[C@H](Cc2c[nH]c3ccccc23)NC(=O)[C@@H](C(c2ccccc2)c2ccccc2)NC1=O | HEKa | cell growth or viability, MTS |  | 100 µg/mL, 24 h |  | viability | > 90%
CNC(=O)C1CCCN(C(=O)C2CC3CCC2N3C(=O)[C@@H]2C[C@@H](O)CN2C(=O)NCc2cccc(Cl)c2F)C1 (mixture of isomers) | Cytochrome P450 1A2 (CYP1A2, Homo sapiens, UniProt P05177) | enzyme activity, inhibitor | human, liver microsomes |  |  | IC50 | > 50 µM
CN1CCCNC(=O)c2cccc(c2)C(=O)NCCCN(C)CCCNc2cccc3c2C(=O)c2cccc(c2C3=O)NCCC1 | SAS | cell growth or viability, CCK-8 |  | 0.15 µM, 48 h |  | viability | 80.3%
COCCc1ccc(OCC(O)CNC(C)C)cc1 (stereo not drawn) | MDCK |  | Caco-2 | 5 µM, 90 min, pH 7.4 |  | efflux ratio | 0.82
OCCn1nc(-c2ccccc2)c2c(Cl)c(-c3ccccc3)nnc21 | MDCK (wild-type) |  |  | 10 µM, 1 h, pH 7.4 |  | Papp (A to B) | 28 ×10⁻⁶ cm/s
COc1cc(N2CCN(C(=O)C3CCCN3)CC2)ccc1Nc1ncc(Cl)c(Nc2ccccc2P(C)(C)=O)n1 (stereo not drawn) | NCI-H3122 | cell growth or viability, CCK-8 |  | 10 nM, 48 h |  | viability | 77% and 64%
CC[C@H](C)[C@H](NC(=O)C[C@H](NC(=O)CN1CCN2CCN(CC1)CC(=O)[O][Al]([18F])[O]C(=O)C2)C(=O)O)C(=O)N[C@H]1CCc2cccc3c2N(C1=O)[C@H](C(=O)NCc1cn[nH]n1)C3 | MC-38 tumour model |  | host not given, liver | 30 min, tumour-bearing |  | tracer uptake | 0.9 %ID/g
Nc1ncc(-c2cc(-c3cnn(CC(F)(F)F)c3)ncc2F)nc1C(=O)NC1CNCC(F)C1 (stereo not drawn) | ERK5 | KINOMEscan |  | 1 µM | reference: DMSO control | remaining binding | 99%
Cn1ccc([C@H](CCO)Nc2nc(N3CCOCC3)c3cc(-c4ccccc4)sc3n2)n1 | RRCK (MDCK) |  |  |  |  | Papp | 41 ×10⁻⁶ cm/s
OB(O)c1ccc(C(F)(F)F)s1 | HFF-1 | cell growth or viability, resazurin |  | 48 h |  | CC50 | > 100 µM
C=CC(=O)Nc1cccc(Cn2ncc3cnc(Nc4cnn(CCOC)c4)nc32)c1 | ITK human | binding, KINOMEscan |  | 100 nM | lower = stronger binding | percent of control | 31%
CC(C)OCCOCc1ccc(OCC(O)CN(N=O)C(C)C)cc1 (stereo not drawn) | Salmonella typhimurium | Ames test | TA98 | 15.8 µg/plate, 30 % hamster S9 | reference: solvent control | revertant fold increase | 1 fold
CC[C@H](C)C(=O)O[C@H]1C[C@@H](C)C=C2C=C[C@H](C)[C@H](CC[C@@H]3CC=CC(=O)O3)[C@H]21 | T84 | MTT |  | 1 and 20 µM, 24 h |  | viability | no effect
O=c1c2ccccc2n(CC2CC2)c(=O)n1O | MDCK |  | Caco-2 | 10 µM |  | efflux ratio | 0.18
O=CCNCCOn1c(=O)n(OCCNCCO)c(=O)n(OCCNCCOn2c(=O)n(OCCNCCO)c(=O)n(OCCNCCO)c2=O)c1=O | HUVEC | cell growth or viability, MTT |  | 24 h |  | IC50 | 100 µg/mL
Cc1ncsc1-c1ccc(C(C)NC(=O)C2CC(O)CN2C(=O)C(NC(=O)CCCCCCCCCCN2CCCC(Nc3ncc(Cl)c(Nc4ccccc4S(=O)(=O)C(C)C)n3)C2)C(C)(C)C)cc1 (stereo not drawn) | 22Rv1 | RNA-seq, item: PER3 mRNA |  | concentration not given | reference: DMSO | log2 fold change | -1.24
O=S(=O)(NCc1ccncc1)c1ccc(C2CCCCC2)cc1 | human bone marrow cells | erythroid colony formation |  | 14 d |  | EC50 | > 1 µM
O=C1NC2(CC2)COc2ncc(F)cc2[C@H]2COCCN2c2ccn3ncc1c3n2 | CHL |  |  | 20 µg/mL, 24 h, without S9 |  | numerical aberrations | 0%
